Experimental data from different studies.
A part holds a random share of what one study measured. Positions count from the first letter of the parent shown.

Study 1 — technique: universal PBM; form: double-stranded DNA, one strand shown; matrix: in vitro; concentration: not given; reading: higher = stronger binding; measurement: E-score
Target: Sal-like protein 4, full length isoform B (SALL4, Homo sapiens, UniProt Q9UJQ4-2, residues 1-616)
Notes: 8-mer, flanks averaged, mean of replicates
ACACTTAG: 0.113
CCGATACG: -0.197
ACACGTAA: 0.234
ACCGCTCA: -0.0786
AAATTGTC: 0.16
CGGACAGA: -0.245
TGCGGCAA: -0.0108
AACATGTC: 0.0406
AAGGGTCA: -0.0754
GGAATGTA: -0.0125
CTGTGGGC: -0.251
CGCCCCCC: -0.464
AACCGAAA: 0.122
GATTTAAA: 0.183
CATAGTCG: 0.0611
TATTCTGA: 0.133
CACCAACA: -0.191
GGGAATAC: -0.0103

Study 2 — target: CCNF, cyclin fold, Cln2 fusion (human); technique: yeast growth competition, sequencing; matrix: yeast; notes: strong parent motif; relative to: not given; reading: higher = stronger binding; measurement: normalised enrichment score
Parent: GMNC docking peptide (human); KNAKRNLSSEFAN
KNAKRNLSSETAN [F11T]: 0.184
KNAKRNLSSEFIN [A12I]: 0.808
KNAKRNLSSEIAN [F11I]: 0.166
KNAKQNLSSEFAN [R5Q]: 0.0903
KNNKRNLSSEFAN [A3N]: 0.716
KNAKRNLSSFFAN [E10F]: 0.844
KNEKRNLSSEFAN [A3E]: 0.504
KNAKRNVSSEFAN [L7V]: 0.149
KNAKRNLSSCFAN [E10C]: 0.7
KNAKRNLSSEFFN [A12F]: 0.591
KNAKGNLSSEFAN [R5G]: -0.0448
KNAKSNLSSEFAN [R5S]: 0.959
KHAKRNLSSEFAN [N2H]: 0.62
KNAWRNLSSEFAN [K4W]: 0.493
KNAKRNLSSEFKN [A12K]: 0.567
KNAKRNLSSEKAN [F11K]: 0.426
KNAKRNLSWEFAN [S9W]: 1.36
KNAKRNGSSEFAN [L7G]: 0.456
KNAKRNLKSEFAN [S8K]: 0.575

Study 3 — technique: protein-binding microarray; form: double-stranded DNA, one strand shown; matrix: in vitro; concentration: 2540 nM top; notes: 60-bp whole probe; together with: salmon DNA 0.4 mg/ml; relative to: random background probes; reading: higher = stronger binding; measurement: fitted relative affinity; constant ends, left off below: GCCTAGCAC … GTCTTGATTCGCTTGACGCTGCTG
Target: Interferon regulatory factor 3, full length, phosphomimetic (IRF3, Homo sapiens, UniProt Q14653, residues 1-427, S386D/S396D/S398D/S402D/T404D/S405D)
Residues (chain): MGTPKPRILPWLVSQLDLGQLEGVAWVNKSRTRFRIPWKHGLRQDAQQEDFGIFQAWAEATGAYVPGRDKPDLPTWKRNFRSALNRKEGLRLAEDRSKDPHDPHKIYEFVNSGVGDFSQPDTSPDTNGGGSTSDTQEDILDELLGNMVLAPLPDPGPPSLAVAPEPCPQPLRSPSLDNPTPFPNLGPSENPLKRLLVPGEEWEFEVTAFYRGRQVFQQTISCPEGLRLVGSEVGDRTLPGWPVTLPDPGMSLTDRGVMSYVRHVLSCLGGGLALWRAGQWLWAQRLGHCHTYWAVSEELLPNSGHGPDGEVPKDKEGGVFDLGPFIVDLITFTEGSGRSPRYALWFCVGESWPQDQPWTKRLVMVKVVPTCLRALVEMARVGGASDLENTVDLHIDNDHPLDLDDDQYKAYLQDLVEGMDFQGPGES
TTAGGACTGAACACTGGGTTAGTGCTA: -0.416 z-score
GACGGACTCGGTATCGGGACGTGCTAG: 0.749 z-score
TTAGGTTTCGGTTTCGGTAAGTGCTAG: 12.4 z-score
TTAGGACTGGGTTCCGGTTAGTGCTAG: 0.595 z-score
GACGATATCGGGCCTGGAGACGTGCTA: -0.403 z-score
TTAGGTTTCTACTTTCGGTTAGTGCTA: 3.33 z-score
CTAGGTCTCCTTATCCTTTAGTGCTAG: 2.74 z-score
TTAGAACTGATACTGGATTAGTGCTAG: 0.954 z-score
GACGGACTGGGTTTCGAGACGTGCTAG: 0.403 z-score
GTCGGTTTCGGACTGGGGACGTGCTAG: 5.59 z-score
TCAGATATGCGGTAAGGGACTGTGCTA: -0.0754 z-score
TTAGGGCTGGGGTATCGGTTAGTGCTA: -0.371 z-score
AGCAGGGCTGATGCTCCCCTGTGCTAG: -1.32 z-score
GACCGACTGGACTATCGGGACGTGCTA: -0.128 z-score

Mixed results
PhoQ, residues 284 288 289 292 302 303 SSTMSV — fold induction (PhoP, residues 12 14 15 18 19 LHHVQ (Escherichia coli, UniProt P23836); Sort-seq, measured: YFP reporter; E. coli; PhoQ-PhoP variant library, together with: 10 µM Mg2+; relative to: high Mg2+ state, higher = stronger signaling): 18.5

For quick reference, copied from above (study 3):
CTAGGTCTCCTTATCCTTTAGTGCTAG: 2.74 z-score
GACGATATCGGGCCTGGAGACGTGCTA: -0.403 z-score
TTAGGTTTCGGTTTCGGTAAGTGCTAG: 12.4 z-score
TCAGATATGCGGTAAGGGACTGTGCTA: -0.0754 z-score
GTCGGTTTCGGACTGGGGACGTGCTAG: 5.59 z-score
GACGGACTCGGTATCGGGACGTGCTAG: 0.749 z-score
GACCGACTGGACTATCGGGACGTGCTA: -0.128 z-score
AGCAGGGCTGATGCTCCCCTGTGCTAG: -1.32 z-score
